Results gathered from unrelated publications.
A part holds a random share of what one study measured. Several values in a cell are separate wells, animals, samples, runs or records.
Sequence of UniProt P21709 (whole entry, looked up): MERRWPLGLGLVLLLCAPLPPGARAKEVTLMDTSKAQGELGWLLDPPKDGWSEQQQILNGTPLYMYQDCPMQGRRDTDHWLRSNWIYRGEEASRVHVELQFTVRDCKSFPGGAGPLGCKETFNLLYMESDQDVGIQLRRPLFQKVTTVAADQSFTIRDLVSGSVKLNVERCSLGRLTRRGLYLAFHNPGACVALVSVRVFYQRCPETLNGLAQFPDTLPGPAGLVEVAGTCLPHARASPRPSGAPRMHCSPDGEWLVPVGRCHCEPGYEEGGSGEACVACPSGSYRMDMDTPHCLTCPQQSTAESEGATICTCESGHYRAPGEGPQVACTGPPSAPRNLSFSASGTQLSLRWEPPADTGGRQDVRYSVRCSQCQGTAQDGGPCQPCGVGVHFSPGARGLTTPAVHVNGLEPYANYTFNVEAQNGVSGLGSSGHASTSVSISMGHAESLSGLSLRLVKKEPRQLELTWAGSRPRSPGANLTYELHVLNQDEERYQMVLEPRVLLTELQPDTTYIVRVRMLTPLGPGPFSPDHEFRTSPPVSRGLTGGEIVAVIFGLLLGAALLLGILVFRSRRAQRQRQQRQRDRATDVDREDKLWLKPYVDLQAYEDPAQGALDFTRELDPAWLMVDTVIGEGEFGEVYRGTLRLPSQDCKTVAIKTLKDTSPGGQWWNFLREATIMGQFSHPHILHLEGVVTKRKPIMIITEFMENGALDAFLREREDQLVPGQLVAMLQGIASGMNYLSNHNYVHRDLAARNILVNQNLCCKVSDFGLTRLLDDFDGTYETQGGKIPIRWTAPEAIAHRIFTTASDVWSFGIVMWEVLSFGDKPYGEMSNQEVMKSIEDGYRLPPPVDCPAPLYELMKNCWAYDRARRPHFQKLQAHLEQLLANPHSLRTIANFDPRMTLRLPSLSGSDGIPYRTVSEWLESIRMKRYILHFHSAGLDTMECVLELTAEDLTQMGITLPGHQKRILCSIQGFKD
Sequence of UniProt Q14164 (whole entry, looked up): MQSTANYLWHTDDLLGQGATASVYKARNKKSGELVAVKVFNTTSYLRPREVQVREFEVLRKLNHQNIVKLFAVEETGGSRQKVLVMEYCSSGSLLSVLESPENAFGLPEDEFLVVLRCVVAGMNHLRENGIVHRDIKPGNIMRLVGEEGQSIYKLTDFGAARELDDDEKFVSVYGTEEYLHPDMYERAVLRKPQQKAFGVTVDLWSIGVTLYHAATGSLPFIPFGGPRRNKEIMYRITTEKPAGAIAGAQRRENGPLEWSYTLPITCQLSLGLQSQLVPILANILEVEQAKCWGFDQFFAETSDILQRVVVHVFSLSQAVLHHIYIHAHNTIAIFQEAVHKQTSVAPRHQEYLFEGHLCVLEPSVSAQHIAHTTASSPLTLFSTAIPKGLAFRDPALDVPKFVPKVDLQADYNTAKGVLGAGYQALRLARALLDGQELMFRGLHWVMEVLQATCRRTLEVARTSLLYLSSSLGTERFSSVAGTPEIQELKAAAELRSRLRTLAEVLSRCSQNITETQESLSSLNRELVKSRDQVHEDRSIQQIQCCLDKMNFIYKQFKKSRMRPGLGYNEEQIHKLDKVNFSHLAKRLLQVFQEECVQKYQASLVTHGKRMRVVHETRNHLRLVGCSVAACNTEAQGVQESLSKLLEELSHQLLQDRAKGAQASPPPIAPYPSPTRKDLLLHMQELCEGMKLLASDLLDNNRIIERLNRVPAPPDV
Sequence of UniProt P00519 (whole entry, looked up): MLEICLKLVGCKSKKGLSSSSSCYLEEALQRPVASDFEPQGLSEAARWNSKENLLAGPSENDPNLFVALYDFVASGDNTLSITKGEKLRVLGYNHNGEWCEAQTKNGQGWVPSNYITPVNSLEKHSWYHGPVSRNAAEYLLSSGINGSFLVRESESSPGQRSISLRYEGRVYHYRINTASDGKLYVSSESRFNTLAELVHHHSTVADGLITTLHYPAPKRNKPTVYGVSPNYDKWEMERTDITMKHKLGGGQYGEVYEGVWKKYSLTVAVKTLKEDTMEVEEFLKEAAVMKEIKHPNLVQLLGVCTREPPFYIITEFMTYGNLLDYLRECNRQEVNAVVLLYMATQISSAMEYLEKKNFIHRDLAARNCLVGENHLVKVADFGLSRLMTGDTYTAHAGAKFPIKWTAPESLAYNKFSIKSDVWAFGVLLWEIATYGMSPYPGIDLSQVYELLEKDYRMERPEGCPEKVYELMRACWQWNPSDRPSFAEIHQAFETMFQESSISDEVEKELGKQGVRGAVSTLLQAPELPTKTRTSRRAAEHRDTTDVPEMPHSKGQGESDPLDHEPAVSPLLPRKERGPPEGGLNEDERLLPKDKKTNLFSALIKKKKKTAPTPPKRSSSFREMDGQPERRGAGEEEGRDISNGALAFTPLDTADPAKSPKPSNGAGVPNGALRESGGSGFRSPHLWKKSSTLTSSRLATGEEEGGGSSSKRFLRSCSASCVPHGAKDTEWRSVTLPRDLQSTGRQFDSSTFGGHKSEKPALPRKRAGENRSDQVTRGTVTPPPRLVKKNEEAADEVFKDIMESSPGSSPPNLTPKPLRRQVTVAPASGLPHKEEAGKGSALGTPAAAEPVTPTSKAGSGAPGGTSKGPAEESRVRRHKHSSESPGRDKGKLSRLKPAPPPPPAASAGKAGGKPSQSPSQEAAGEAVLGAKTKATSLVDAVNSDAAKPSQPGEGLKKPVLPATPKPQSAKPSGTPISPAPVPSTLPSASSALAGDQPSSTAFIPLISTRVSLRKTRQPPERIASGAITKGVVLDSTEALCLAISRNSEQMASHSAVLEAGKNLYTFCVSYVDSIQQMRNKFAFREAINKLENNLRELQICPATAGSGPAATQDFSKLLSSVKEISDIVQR
Sequence of UniProt P19525 (whole entry, looked up): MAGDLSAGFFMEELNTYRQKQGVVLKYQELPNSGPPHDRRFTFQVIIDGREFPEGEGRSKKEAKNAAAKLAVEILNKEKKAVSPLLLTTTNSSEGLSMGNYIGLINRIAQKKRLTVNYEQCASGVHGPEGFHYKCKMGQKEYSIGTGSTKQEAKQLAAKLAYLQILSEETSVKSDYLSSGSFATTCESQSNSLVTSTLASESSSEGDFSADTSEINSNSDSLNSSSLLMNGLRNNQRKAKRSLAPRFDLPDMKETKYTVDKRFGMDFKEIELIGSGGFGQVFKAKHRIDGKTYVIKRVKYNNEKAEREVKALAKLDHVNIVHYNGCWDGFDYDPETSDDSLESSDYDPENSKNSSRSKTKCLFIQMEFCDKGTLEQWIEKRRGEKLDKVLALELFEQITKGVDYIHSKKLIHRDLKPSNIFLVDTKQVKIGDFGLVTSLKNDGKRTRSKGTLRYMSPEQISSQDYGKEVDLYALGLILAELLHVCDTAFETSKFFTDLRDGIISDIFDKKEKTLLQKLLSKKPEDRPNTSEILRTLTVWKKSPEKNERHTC
Sequence of UniProt O94921 (whole entry, looked up): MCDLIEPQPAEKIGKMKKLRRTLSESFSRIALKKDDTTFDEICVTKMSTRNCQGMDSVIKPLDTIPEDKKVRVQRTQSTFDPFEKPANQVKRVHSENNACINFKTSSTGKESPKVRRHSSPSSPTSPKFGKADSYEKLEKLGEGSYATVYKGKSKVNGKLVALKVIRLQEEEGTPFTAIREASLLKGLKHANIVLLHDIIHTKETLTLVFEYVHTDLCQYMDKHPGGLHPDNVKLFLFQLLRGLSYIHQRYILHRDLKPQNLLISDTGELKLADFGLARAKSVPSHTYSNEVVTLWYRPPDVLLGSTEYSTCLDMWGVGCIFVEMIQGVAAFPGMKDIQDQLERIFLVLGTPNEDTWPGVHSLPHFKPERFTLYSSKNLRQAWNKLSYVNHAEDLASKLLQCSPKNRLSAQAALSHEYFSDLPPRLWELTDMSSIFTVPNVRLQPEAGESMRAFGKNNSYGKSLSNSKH
Sequence of UniProt Q9Y616 (whole entry, looked up): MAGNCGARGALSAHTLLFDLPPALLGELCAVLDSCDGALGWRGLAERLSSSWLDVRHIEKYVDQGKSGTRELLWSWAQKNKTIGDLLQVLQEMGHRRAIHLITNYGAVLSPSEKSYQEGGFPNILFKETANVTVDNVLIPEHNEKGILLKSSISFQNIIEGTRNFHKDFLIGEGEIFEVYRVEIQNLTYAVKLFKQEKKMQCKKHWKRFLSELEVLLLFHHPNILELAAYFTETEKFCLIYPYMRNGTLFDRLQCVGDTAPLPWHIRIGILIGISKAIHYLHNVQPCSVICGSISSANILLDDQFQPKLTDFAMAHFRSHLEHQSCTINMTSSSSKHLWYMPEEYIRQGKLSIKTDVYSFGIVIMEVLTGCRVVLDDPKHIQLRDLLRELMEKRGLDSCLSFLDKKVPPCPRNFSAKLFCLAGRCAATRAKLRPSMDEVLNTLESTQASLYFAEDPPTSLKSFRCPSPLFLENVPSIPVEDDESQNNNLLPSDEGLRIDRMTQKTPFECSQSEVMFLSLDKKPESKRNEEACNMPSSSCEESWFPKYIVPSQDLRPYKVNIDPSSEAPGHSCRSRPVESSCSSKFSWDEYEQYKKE
Sequence of UniProt Q8WU08 (whole entry, looked up): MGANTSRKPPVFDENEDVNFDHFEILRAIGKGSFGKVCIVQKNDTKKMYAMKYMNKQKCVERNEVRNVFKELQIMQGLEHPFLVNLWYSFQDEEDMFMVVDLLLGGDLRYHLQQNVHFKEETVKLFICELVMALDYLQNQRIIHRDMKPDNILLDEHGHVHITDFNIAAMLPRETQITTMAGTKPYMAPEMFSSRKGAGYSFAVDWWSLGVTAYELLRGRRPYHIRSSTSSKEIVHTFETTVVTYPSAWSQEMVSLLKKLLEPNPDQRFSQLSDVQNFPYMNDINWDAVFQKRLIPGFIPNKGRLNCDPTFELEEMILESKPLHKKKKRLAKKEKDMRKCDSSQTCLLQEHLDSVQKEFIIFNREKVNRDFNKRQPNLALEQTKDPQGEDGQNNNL

Block 1
Host: mouse
Medium: microsomes or S9
Tested at: 2 µM
Time: 0.5 h
Endpoint: remaining compound
CCN(CC)CCNc1c2c(nc3cc(-c4cccc(F)c4)nn13)CCCC2: 2.01%
[O-][S+](CCc1ccccc1)Cc1c(Cl)cccc1Cl (centres unmarked): 0.615%
COc1ccc(C2CC(c3cccs3)=NN2S(C)(=O)=O)cc1OC (centres unmarked): 46.8%

Block 2
Method: PRP chromatography estimate
Medium: 1,9-decadiene/PBS
pH: 7.4
Endpoint: logD
CC(C)C[C@@H]1NC(=O)[C@@H](C)NC(=O)[C@H](Cc2cscn2)NC(=O)[C@@H](CC(C)C)NC(=O)[C@H](C(C)C)NC(=O)[C@H](CC(C)C)NC(=O)[C@@H](CC(C)C)NC1=O: -0.295
CCC[C@H]1NC(=O)CSC[C@@H](C(=O)OCC)N(C)C(=O)[C@H](CC(C)C)NC(=O)[C@H](C)N(C)C(=O)[C@H](CC(C)C)NC(=O)[C@H](C)N(C)C(=O)[C@@H]2CCCN2C(=O)[C@@H](CC(C)C)NC(=O)CN(CCC)C1=O: 0.429
CC(C)C[C@@H]1NC(=O)[C@H](C)NC(=O)[C@@H](Cc2cscn2)NC(=O)[C@@H](CC(C)C)NC(=O)[C@H](C)NC(=O)[C@H](CC(C)C)NC(=O)[C@H](CC(C)C)NC1=O: -1.39

Block 3
Cell line: A-375
Tested at: 100 µM
Time: 18 h
Endpoint: viability
Cc1ccnc2c1NC(=O)c1cccnc1N2C1CC1: 88.4%
Cc1ccccc1C(=O)Nc1ccc(C(=O)N2CCCC(O)c3cc(Cl)ccc32)c(C)c1 (centres unmarked): 69.9%
CCCCC(CC)CN1CN(CC(CC)CCCC)CC(C)(N)C1 (centres unmarked): 58.9%
Cc1ccccc1N1C(=O)c2cc(S(N)(=O)=O)c(Cl)cc2NC1C (centres unmarked): 105%

Block 4
Target: Hepatocyte nuclear factor 3-alpha (Foxa1, Mus musculus, UniProt P35582, residues 1-468, full length assumed)
Method: EMSA with sequencing
Form: double-stranded DNA, one strand shown
Medium: in vitro
Tested at: 10 and 20 nM
Notes: whole designed probe, mean of two concentrations, ends assumed
Baseline: negative control set to 0
Reading: higher = stronger binding
Endpoint: normalised bound fraction
All sequences stand within: GTGAGCGGTGCCCATTGATGGGGAAC … TTTCACTGGGATCGTGGGGAC
Construct (chain): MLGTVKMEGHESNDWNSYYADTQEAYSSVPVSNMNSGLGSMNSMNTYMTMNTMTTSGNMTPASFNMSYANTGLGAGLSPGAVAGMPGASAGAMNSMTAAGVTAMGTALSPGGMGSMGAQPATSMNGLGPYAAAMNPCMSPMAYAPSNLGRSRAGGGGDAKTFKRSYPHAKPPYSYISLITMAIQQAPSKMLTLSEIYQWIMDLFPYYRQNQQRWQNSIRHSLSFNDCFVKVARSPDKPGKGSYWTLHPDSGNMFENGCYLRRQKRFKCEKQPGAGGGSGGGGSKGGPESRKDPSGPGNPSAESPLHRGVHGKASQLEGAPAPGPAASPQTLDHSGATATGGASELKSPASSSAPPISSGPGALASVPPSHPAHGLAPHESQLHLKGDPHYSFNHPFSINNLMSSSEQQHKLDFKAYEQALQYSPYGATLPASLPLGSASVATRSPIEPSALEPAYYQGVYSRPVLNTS
ATCTTCCCCCTCTTCCTTGCCCCACCAGCTCACCTTCCCGGGTTATTTGCACAAAGGAAAATAAATAAAGCCGGCATTCGTTAACGCAGTTCACGCGCATACTGCTGTTTGCTCTGGATGAATCATGGTCCTTTGGCGACGCCAGGCTCCGGGAGAGCAAAGCACCGTGTCAGGGCCATGATCCGGGGTGGCC: 0.365 ratio
AGAGGAATCCCAGAGAGCTGTTCTTTACAGTTTTGTTTCTTGTTTAAATTCGAGAACTAAAAATCCAGTCCCAGAGTGCGTACATAGTCAAAGCAATCTTGGAAAGTTCAGAAGTTATGCAGTGAACCATCAGAGCCTATTAAGAATCTAATCTTTCTCCAAGTAATGTTGGGGTCAGGCAGCTAACTGCAAC: -0.0267 ratio
CAGGAGAAAAGTTTTCCATTGAGAGGCTGGAGTGGAGCTCTAGGGATTGGTGGGGTTGTCACCAGCCATACCAGTGCATTCTAAGGCACAAGTTGTTTGCTTTGGCCCAGAAACAGCTGGCAGTTGGCCAGTGCCCAGCCACCTTGTCCTTTGCCCATGAAGGCTCTAGTAATTAGCAATATTCACCGAATGA: 0.29 ratio
TTTGGATGTTGTCAGTGGGCAGAGATCAGGTCATGTATGTTTACACAGATGGAACAAAGGATTTTTACCCCTTCAGCCAGATCTGGGACTCAATGTAAACAGCAAGATAACAACACAGGAAGGGTTGCAAACATTGTGCCTAGCACAGGGATGACAGCAGGGCGAATCCTGTAATGTCAAATGTCAGTCAAAT: 0.467 ratio
ATCTTCCCCCTCTTCCTTGCCCCACCAGCTCACCTTCCCGGGTTATTTGCAGATAGTATTTATTTTCAAGCCGGCATTCGTTAACCCTCTTCTGGCGCAAACTGCCAGAGCAAACAGATGAATCATGGTCCTTTGGCGACGCCAGGCTCCGGGAGAGCAAAGCACCGTGTCAGGGCCATGATCCGGGGTGGCC: 0.266 ratio

Block 5
Cell line: mouse MPNST tumor cells
Method: high-content nuclear imaging
Measured: cell number
Tested at: 10 µM
Time: 12 h
Notes: mean of 2 replicates
Baseline: plate mean
Reading: higher = more cells
Endpoint: nuclei count
O=C(/C=C/c1ccccc1)NC(NC(=S)Nc1cccc2cccnc12)C(Cl)(Cl)Cl (centres unmarked): 0.746 z-score
CCOC(=O)C1=C(C)NC(C)=C(C(=O)OC)C1c1cccc([N+](=O)[O-])c1 (centres unmarked): 0.369 z-score and -0.171 z-score
CCC(CC=Cc1ccccc1)(c1ccccc1)N(C)CC1CC1 (single isomer, unassigned; (+)): 0.00149 z-score

Block 6
SMILES: COc1cccc(CNC(=O)c2nc3scc(COCc4ccc(C(=O)O)cc4)c3c(=O)[nH]2)c1
Observed: cell-free assay
Method: competition with immobilised ligand
Tested at: 1 µM
Endpoint: remaining binding
Tyrosine-protein kinase ABL1, phosphorylated (ABL1, Homo sapiens, UniProt P00519): 68.6%
Ephrin type-A receptor 1 (EPHA1, Homo sapiens, UniProt P21709): 79.9%
Inhibitor of nuclear factor kappa-B kinase subunit epsilon (IKBKE, Homo sapiens, UniProt Q14164): 83.9%
MAP kinase-activated protein kinase 2 (MAPKAPK2, Homo sapiens, UniProt P49137): 64.3%
Receptor-type tyrosine-protein kinase FLT3 (FLT3, Homo sapiens, UniProt P36888, D835Y): 94.3%
Interferon-induced, double-stranded RNA-activated protein kinase (EIF2AK2, Homo sapiens, UniProt P19525): 97.7%
Serine/threonine-protein kinase 32A (STK32A, Homo sapiens, UniProt Q8WU08): 100%
Receptor-type tyrosine-protein kinase FLT3 (FLT3, Homo sapiens, UniProt P36888): 85%
Death-associated protein kinase 3 (DAPK3, Homo sapiens, UniProt O43293): 92.2%
Cyclin-dependent kinase 14 (CDK14, Homo sapiens, UniProt O94921): 100%
Interleukin-1 receptor-associated kinase 3 (IRAK3, Homo sapiens, UniProt Q9Y616): 97.5%
Cyclin-dependent kinase 2 (CDK2, Homo sapiens, UniProt P24941): 100%
Ephrin type-B receptor 2 (EPHB2, Homo sapiens, UniProt P29323): 95.7%
Insulin receptor-related protein (INSRR, Homo sapiens, UniProt P14616): 100%

Some of these lines once more (block 6):
Death-associated protein kinase 3 (DAPK3, Homo sapiens, UniProt O43293): 92.2%
Cyclin-dependent kinase 14 (CDK14, Homo sapiens, UniProt O94921): 100%
Interleukin-1 receptor-associated kinase 3 (IRAK3, Homo sapiens, UniProt Q9Y616): 97.5%
Cyclin-dependent kinase 2 (CDK2, Homo sapiens, UniProt P24941): 100%
